Measured values collected from several papers.
Lines come from different studies, so protocols differ. “And” joins repeats or separate records; there may be more than shown. ± gives the spread as reported.

NCCOc1cc(NC(=O)c2cc(OCc3cn(Cc4ccc(C(=O)O)cc4)nn3)cc(C(=O)Nc3cc(OCCN)c4ccccc4n3)n2)nc2ccccc12 — ΔTm (c-kit1 G-quadruplex DNA; FRET melting; 1 µM, pH 7.4, added: 60 mM potassium): 15.5 ± 0.5 K
CC[C@H]1OC(=O)[C@H](C)[C@@H](OC(=O)CC2CCCCC2)[C@H](C)[C@@H](O[C@@H]2O[C@H](C)C[C@H](N(C)C)[C@H]2O)[C@](C)(OC)C[C@@H](C)C(=O)[C@H](C)[C@@H](O)[C@]1(C)O — IC50 (Escherichia coli ribosome; in vitro transcription-translation, inhibitor): 0.8 µM
C1=NCCCN=Cc2ccc([nH]2)-c2nc3ccccc3nc2-c2ccc1[nH]2 — melting temperature (human ACTN3 291-bp linear dsDNA; high-resolution melt; 135 µM): 82.8 °C
C=CC(=O)N1[C@H](c2ccc3c(c2)OCO3)c2[nH]c3ccccc3c2C[C@@H]1C(=O)N1CCN(C)CC1 — relative co-enrichment (human cyclin E1 N112C-3xFLAG:CDK2; co-IP with TMT proteomics, measured: HNRNPU; concentration not given, Q00839; baseline: wild type DMSO): 132%
CC(C)(O)c1ccn2c(-c3ccc(F)c(-c4ccc(F)cc4C#N)c3)cnc2c1F — surface expression (GABAA receptor α1 P260L human; cell surface biotinylation; HEK-293T; 5 µM, 24 h, added: hispidulin 10 µM; baseline: DMSO): 2 ± 0.29 fold
C=C(C)C1CC=C(CN2CCN(Cc3ccccc3)CC2)CC1 (stereo not drawn) — translation activity (Trypanosoma cruzi; reporter mRNA translation, inhibitor, measured: Renilla luciferase mRNA; cell-free extract; concentration not given, test 1; baseline: positive over negative control): 101% and 97.4%
C=CC(=O)Nc1cccc(Cn2ncc3cnc(Nc4cnn(CCOC)c4)nc32)c1 — binding (human ABL1(T315I)-nonphosphorylated; KINOMEscan; 100 nM; baseline: control): 16%
COC1CN([C@H]2CC[C@H]([C@@]3(C)Oc4c(Cl)cc(C(=O)NCc5c(SC)cc(C)[nH]c5=O)c(C)c4O3)CC2)C1 — log2 fold change (RNA-seq, measured: MUSTN1; human, whole blood; dose not given, 24 h; baseline: pretreatment baseline): 2.53
Cc1ncsc1-c1ccc(C(C)NC(=O)C2CC(O)CN2C(=O)C(NC(=O)CCCCCCCCCCN2CCCC(Nc3ncc(Cl)c(Nc4ccccc4S(=O)(=O)C(C)C)n3)C2)C(C)(C)C)cc1 (stereo not drawn) — log2 fold change (22Rv1; RNA-seq, measured: LIPT2 mRNA; concentration not given; baseline: DMSO): -1.15
Nc1ncc(-c2cc(-c3cnn(CC(F)(F)F)c3)ncc2F)nc1C(=O)NC1CNCC(F)C1 (stereo not drawn) — remaining binding (DAPK2; KINOMEscan; 1 µM; baseline: DMSO control): 100%
c1ccc(-c2n[nH]cc2-c2ccnc3ccccc23)nc1 — log2 fold change (PTK2 (Candida albicans); kinase binding, MIB/MS competition; Candida albicans lysate; 10 µM; baseline: DMSO): 0.15
CC[C@H]1OC(=O)[C@H](C)[C@@H](OC(=O)Cc2ccccc2Cl)[C@H](C)[C@@H](O[C@@H]2O[C@H](C)C[C@H](N(C)C)[C@H]2O)[C@](C)(OC)C[C@@H](C)C(=O)[C@H](C)[C@@H](O)[C@]1(C)O — IC50 (Escherichia coli ribosome; in vitro transcription-translation, inhibitor): 0.23 µM
CNS(=O)(=O)Nc1nccc(Cc2c(C)c3ccc(Oc4ncccc4F)cc3oc2=O)c1F — IC50 (EN; cell viability, CellTiter-Glo; 7 days): > 1 µM
CC(=O)NCCCN(C)CCCNc1cccc2c1C(=O)c1cccc(NCCCN(C)CCCNC(C)=O)c1C2=O — selectivity ratio (telomeric G-quadruplex DNA; DNA binding, UV-Vis titration; baseline: Ka telomeric G1 over double-stranded DNA): 5
CC(=O)c1cnc(N)nc1N1CC[C@H]1c1nn2ccc(Cl)c2c(=O)n1-c1ccccc1 — inhibition (somatostatin receptor; radioligand binding, agonist; 10 µM): 15%
Cc1ccc2c(c1)sc(-c1ccc(N(C)C)cc1)[n+]2C.[I-] — translation activity (Trypanosoma cruzi; reporter mRNA translation, inhibitor, measured: Renilla luciferase mRNA; cell-free extract; concentration not given, test 1; baseline: positive over negative control): 49.9% and 45.7%
CC(C)=CCC/C(C)=C/CC/C(C)=C/Cc1c(O)cc(CO)c(C=O)c1O — Vmax (StaI′ (Stachybotrys chartarum); substrate; 30 min, pH 7.5, 40 °C): 1.49 nmol/min/mg
Fc1ccc(Nc2nc(NC3CCCCC3)c3ccccc3n2)cc1F — maximal inhibition (β2AR/β1AR ECL1/3 chimera; β-arrestin2 recruitment, antagonist, BRET; baseline: isoprenaline maximal response): -1.4%
